Results of several laboratories.
Each numbered part is a random draw from the data of one study; scales do not carry over between parts.

Block 1 — method: protein binding microarray; molecule type: double-stranded DNA, one strand shown; sample: in vitro; tested at: not given; reference: not given; reading: higher = stronger binding; endpoint: E-score
Target: Histone acetyltransferase KAT6A, winged helix 1, GST fusion (KAT6A, Homo sapiens, UniProt Q92794, residues 1-85)
Notes: 8-mer, flanks averaged, mean of 2 arrays, mostly near background
Residues (chain): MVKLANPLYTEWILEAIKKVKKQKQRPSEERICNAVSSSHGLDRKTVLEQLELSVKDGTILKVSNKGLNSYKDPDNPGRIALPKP
CCCGCGAC: 0.405
AGGTGGAA: -0.179
CATGGCGA: -0.0119

Block 2 — method: Sort-seq; refers to: YFP reporter; sample: E. coli; notes: PhoQ-PhoP variant library; together with: 10 µM Mg2+; reference: high Mg2+ state; reading: higher = stronger signaling; endpoint: fold induction
Substance: PhoQ, residues 284 288 289 292 302 303 GANMMA
PhoP, residues 12 14 15 18 19 TQAML (Escherichia coli, UniProt P23836): 22.8
PhoP, residues 12 14 15 18 19 NQCAL (Escherichia coli, UniProt P23836): 38.6
PhoP, residues 12 14 15 18 19 LHTVL (Escherichia coli, UniProt P23836): 19.5

Block 3 — method: universal PBM; molecule type: double-stranded DNA, one strand shown; sample: in vitro; tested at: not given; reading: higher = stronger binding; endpoint: E-score
Target: Sal-like protein 4, full length isoform B (SALL4, Homo sapiens, UniProt Q9UJQ4-2, residues 1-616)
Notes: 8-mer, flanks averaged, mean of replicates
Target sequence (chain): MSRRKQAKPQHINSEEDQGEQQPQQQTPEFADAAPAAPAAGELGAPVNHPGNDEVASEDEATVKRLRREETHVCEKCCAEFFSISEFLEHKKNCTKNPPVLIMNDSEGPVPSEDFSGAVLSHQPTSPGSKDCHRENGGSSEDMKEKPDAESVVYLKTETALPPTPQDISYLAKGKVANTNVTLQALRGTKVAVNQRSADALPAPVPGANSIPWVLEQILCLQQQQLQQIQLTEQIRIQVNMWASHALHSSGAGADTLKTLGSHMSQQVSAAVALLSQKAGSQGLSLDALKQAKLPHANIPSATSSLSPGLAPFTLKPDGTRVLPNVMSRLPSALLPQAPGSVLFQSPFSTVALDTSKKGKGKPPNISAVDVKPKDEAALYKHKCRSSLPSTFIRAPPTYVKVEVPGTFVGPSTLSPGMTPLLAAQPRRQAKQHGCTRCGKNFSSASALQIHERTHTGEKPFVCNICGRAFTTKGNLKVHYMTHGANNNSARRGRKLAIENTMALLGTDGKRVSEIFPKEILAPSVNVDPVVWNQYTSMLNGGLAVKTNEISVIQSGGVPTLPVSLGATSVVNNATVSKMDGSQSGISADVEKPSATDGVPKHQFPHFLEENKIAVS
CCCGAGCC: -0.286
AGTTGCAG: -0.0878
AATGGATA: 0.193

Block 4 — method: protein-binding microarray; molecule type: double-stranded DNA, one strand shown; sample: in vitro; tested at: 250 nM; notes: 60-bp whole probe; together with: salmon DNA 0.4 mg/ml; reference: random background probes; reading: higher = stronger binding; endpoint: log fluorescence
Target: Interferon regulatory factor 5, full length, phosphomimetic (IRF5, Homo sapiens, UniProt Q13568-2, residues 1-514, K96S/S451D/S453D/S456D/S462D)
GCCTAGCACATAAAAATCTTTGTTGGAGGGGTGCTAGTCTTGATTCGCTTGACGCTGCTG: 0.618 z-score
GCCTAGCACTTAGATTTCGGGTATCGAATAGTGCTAGTCTTGATTCGCTTGACGCTGCTG: 6.28 z-score
GCCTAGCACGACCATTTCGGGTATCGAGACGTGCTAGTCTTGATTCGCTTGACGCTGCTG: 3.96 z-score
GCCTAGCACTTAGACTTCGGGTTTCGATTAGTGCTAGTCTTGATTCGCTTGACGCTGCTG: 5.96 z-score

Some of these lines once more (block 1):
AGGTGGAA: -0.179
